Experimental data pooled from the literature.
Lines come from different studies, so protocols differ. Values joined by “and” are separate records of one study, mostly repeats; a detail may differ. Numbers after ± are the reported error.
SLCO1B3: Solute carrier organic anion transporter family member 1B3 (SLCO1B3, Homo sapiens, UniProt Q9NPD5)
Chain of UniProt Q9NPD5 (whole entry, looked up): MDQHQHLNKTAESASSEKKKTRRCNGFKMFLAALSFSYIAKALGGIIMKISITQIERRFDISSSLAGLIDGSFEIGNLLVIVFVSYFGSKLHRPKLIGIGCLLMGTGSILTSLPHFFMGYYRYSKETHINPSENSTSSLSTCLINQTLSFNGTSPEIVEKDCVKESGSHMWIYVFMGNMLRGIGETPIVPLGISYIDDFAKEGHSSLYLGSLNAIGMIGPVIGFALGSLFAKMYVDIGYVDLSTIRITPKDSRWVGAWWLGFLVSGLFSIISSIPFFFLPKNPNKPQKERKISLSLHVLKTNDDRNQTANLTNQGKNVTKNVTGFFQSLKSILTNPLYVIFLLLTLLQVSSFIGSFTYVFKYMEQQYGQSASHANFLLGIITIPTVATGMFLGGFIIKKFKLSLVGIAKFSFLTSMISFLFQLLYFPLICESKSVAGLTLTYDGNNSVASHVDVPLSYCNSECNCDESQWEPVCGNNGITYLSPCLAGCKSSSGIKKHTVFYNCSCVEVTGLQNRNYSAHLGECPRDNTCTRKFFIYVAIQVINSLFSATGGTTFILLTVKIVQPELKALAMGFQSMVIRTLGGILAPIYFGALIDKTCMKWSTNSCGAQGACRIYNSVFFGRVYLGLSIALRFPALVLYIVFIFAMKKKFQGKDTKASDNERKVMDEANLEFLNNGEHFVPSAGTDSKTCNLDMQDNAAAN
Chain of UniProt Q9UNQ0 (whole entry, looked up): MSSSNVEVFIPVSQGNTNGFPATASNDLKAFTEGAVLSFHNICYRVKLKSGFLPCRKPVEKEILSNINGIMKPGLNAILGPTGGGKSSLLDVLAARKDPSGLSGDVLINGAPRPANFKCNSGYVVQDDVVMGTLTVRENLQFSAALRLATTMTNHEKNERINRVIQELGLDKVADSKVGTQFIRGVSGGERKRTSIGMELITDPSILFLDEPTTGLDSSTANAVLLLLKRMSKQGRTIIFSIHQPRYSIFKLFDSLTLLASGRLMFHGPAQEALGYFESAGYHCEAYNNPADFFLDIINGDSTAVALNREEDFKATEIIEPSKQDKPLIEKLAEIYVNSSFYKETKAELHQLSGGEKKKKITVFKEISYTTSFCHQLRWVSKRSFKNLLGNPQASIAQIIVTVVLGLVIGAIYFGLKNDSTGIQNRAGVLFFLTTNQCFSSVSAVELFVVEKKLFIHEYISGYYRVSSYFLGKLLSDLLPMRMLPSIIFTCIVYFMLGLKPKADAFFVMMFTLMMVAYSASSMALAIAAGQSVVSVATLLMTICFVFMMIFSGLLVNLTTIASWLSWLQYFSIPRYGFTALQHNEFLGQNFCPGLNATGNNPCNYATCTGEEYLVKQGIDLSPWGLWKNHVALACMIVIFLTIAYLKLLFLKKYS

`CCCC(C(=O)c1ccc(O)c(OC)c1)N1CCCC1` (stereo not drawn) gave a brain-to-plasma ratio of 0.1 (rat; subcutaneous, 1 mg/kg MDPV, 240 min).
Under “dose-reducing adverse events”, `CO[C@H]1C[C@@H]2CC[C@@H](C)[C@@](O)(O2)C(=O)C(=O)N2CCCC[C@H]2C(=O)O[C@H]([C@H](C)C[C@@H]2CC[C@@H](OC(=O)NCCOCCOCCOCCOCCOCCOCCOCCOCCC(=O)N3CCc4cc(Cn5nc(-c6ccc7oc(N)nc7c6)c6c(N)ncnc65)ccc4C3)[C@H](OC)C2)C[C@@H](O)[C@H](C)/C=C(\C)[C@@H](O)[C@@H](OC)C(=O)[C@H](C)C[C@H](C)/C=C/C=C/C=C/1C` is recorded as 25% (phase 1 dose escalation, item: gastric haemorrhage; advanced solid tumour patients; intravenous, 16 mg weekly, grade ≥3).
With `CC(C)C[C@@H](NC(=O)[C@H](N)CCCCN)C(=O)N[C@@H](C(=O)N[C@H](Cc1ccccc1)C(=O)N[C@H](Cc1ccccc1)C(N)=O)C(C)C` the viability was 100% (NGF-differentiated PC-12 neurons; 40 µM, 24 h; baseline: untreated).
`O=[N+]([O-])c1ccc(N2CCC(NCCC(O)c3ccc(F)c4ccccc34)CC2)c(C(F)(F)F)c1` (stereo not drawn) has a survival of 100% (Salmonella typhimurium; SOS/umu test; TA1535/pSK1002; 0.002 mg/mL, 4 h, with S9, lower range).
`CC1CCN(CCCNC(=O)c2cc(Sc3ccc(F)cc3)nc3ccccc23)CC1` has a cytotoxicity efficacy of 0% (Vero-E6; CellTiter-Glo ATP; concentration not given, 72 h, second round 5-point; baseline: DMSO 0%, hyamine -100%, more negative, more toxic).
`CC(C)C[C@@H](NC(=O)[C@H](N)CCCCN)C(=O)N[C@H](CC(C)C)C(=O)N[C@H](Cc1ccccc1)C(=O)N[C@H](Cc1ccccc1)C(N)=O` gave a viability of 100% (NGF-differentiated PC-12 neurons; 5 µM, 24 h; baseline: untreated).
`COc1ccc(-c2nc(CN3CCC(C(=O)NCCCN4CCN(c5ccccc5F)CC4)CC3)c(C)o2)cc1OC` has a maximum response of -22.8% (Vero-E6; CellTiter-Glo ATP; 72 h, second round 5-point; baseline: DMSO 0%, hyamine -100%, more negative, more toxic).
For `O=NN1CCN(c2cc3c(cc2F)c(=O)c(C(=O)O)cn3C2CC2)CC1`, micronucleus induction read “negative” (TK6).
The inhibition of `CCN(CCO)CCCC(C)Nc1ccnc2cc(Cl)ccc12` (stereo not drawn) is reported as 63.4% (SLCO1B3; transport, inhibitor; transiently transfected cells; 100 µM, 10 (unit not given), added: CCK-8).
`O=C1c2c(O)c(=O)ccn2N([C@@H]2c3ccccc3SCc3c2ccc(F)c3F)[C@@H]2COCCN12` gave a trough concentration of 2.56 ng/mL (BALB/c mouse; subcutaneous, 0.5 mg/kg q12h).
With `CCCC(C(=O)c1ccc2c(c1)OCO2)N1CCCC1.Cl` (racemic) the Kp was 9.4 ± 1.3 (rat, brain over plasma; sc, 4 mg/kg, 240 min).
With `N#Cc1c(Nc2ccc(F)cc2)n[nH]c1NS(=O)(=O)c1ccc2ccccc2c1` the CC50 was 8 µM (Huh-7).
`CNC(=O)c1c(C)oc2cc(Oc3ccnc4cc(OCCN5CCOCC5)ccc34)ccc12` gave a haemoglobin level of 19.5 g/dL (human; 6 mg twice daily, cycle 8).
For `CN/C(=N\[N+](=O)[O-])NCc1cnc(Cl)s1`, the recovery was 58% (soil; 0.12 nominal, 0 days, Folsomia candida soil test).
`CCCCCCCCc1ccc(CCC(N)(CO)CO)cc1` gave an inhibition of -21.5% (ABCG2 (Homo sapiens, UniProt Q9UNQ0); transport, inhibitor; 100 µM, 5 (unit not given), pH 7, added: CCK-8).
Under micronucleus induction, `COC(=O)C(C(C)C)N(Cc1ccc(-c2ccccc2-c2nn[nH]n2)cc1)N=O` (stereo not drawn) is recorded as “negative” (TK6).
For `COc1ccc(Nc2cc(C(=O)NCCCN(C)Cc3ccccc3)c3ccccc3n2)cc1`, the maximum response was -14.1% (Vero-E6; CellTiter-Glo ATP; 72 h, second round 5-point; baseline: DMSO 0%, hyamine -100%, more negative, more toxic).
`C[C@]1(CO)Cc2ncn(-c3ccc(C#N)c(Cl)c3)c2C(=O)O1` has a Tmax of 1 h (healthy Japanese adults, plasma; 3 mg single dose).
For `CCCN1CCN(CCCNC(=O)c2cc3c(Cl)nc4ccccc4c3s2)CC1`, the maximum response was -15.9% (Vero-E6; CellTiter-Glo ATP; 72 h, second round 5-point; baseline: DMSO 0%, hyamine -100%, more negative, more toxic).
`[Cl-].[Cl-].[Pt+2].[Ru+2].c1ccc(-c2nc3ccccc3nc2-c2ccccn2)nc1.c1cnc2c(c1)ccc1cccnc12.c1cnc2c(c1)ccc1cccnc12` gave a survival rate of 100% (Danio rerio; embryos; 15 µM, 0 h).
`CCCCN(C)CCCNC(=O)c1ccc2nc(N3CCCCC3)sc2c1` gave a maximum response of -8.88% (Vero-E6; CellTiter-Glo ATP; 72 h, second round 5-point; baseline: DMSO 0%, hyamine -100%, more negative, more toxic).
With `CC(C)C[C@@H](N)C(=O)N[C@H](CC(C)C)C(=O)N[C@H](Cc1ccccc1)C(=O)N[C@H](Cc1ccccc1)C(=O)N[C@H](C)C(=O)N[C@H](CCC(=O)O)C(N)=O` the viability was 91.3% (NGF-differentiated PC-12 neurons; 160 µM, 24 h; baseline: untreated).
`Cc1ccc2nc(Cl)c3cc(C(=O)NCCCN4CCC(C)CC4)sc3c2c1` gave a maximum response of -16.7% (Vero-E6; CellTiter-Glo ATP; 72 h, second round 5-point; baseline: DMSO 0%, hyamine -100%, more negative, more toxic).
`CN1CC[C@@H](c2c(O)cc(O)c3c(=O)cc(-c4ccc(C(F)(F)F)cc4Cl)oc23)[C@@H]1CO`: “adverse event incidence” 2.5% (item: Diarrhea; relapsed or refractory haematological malignancies; oral, dose not given, grade ≥3).
With `CC(=O)c1c(C)c2cnc(Nc3ccc(C4CCN(CCS(C)(=O)=O)CC4)cn3)nc2n(C2CCCC2)c1=O` the k_el was 5.28e-05 s⁻¹ (human, plasma; oral, 50 mg twice daily, day 1, single dose, added: letrozole).
`CC(=O)N1CCC(C(=O)N2CCN3C(=O)c4cc(-c5ccccc5)ccc4NC(=O)C3C2)CC1` (stereo not drawn) — result for “fold increase in revertants”: 1 (Salmonella typhimurium; TA98; 500 µg/plate, added: rat liver S9; baseline: vehicle).
For `O=c1ccc2ccccc2o1`, “point of departure” read 640 µM (HepG2; item: cellular ATP; 6 h).
`CCOC(=O)c1c(CSc2ccccc2)n(C)c2cc(Br)c(O)c(CN(C)C)c12` gave an inhibition of 9.1% (SLCO1B3; transport, inhibitor; transiently transfected cells; 100 µM, 10 (unit not given), added: CCK-8).
`COc1cc2c(Oc3ccc4[nH]c(C)cc4c3F)ccnc2cc1OCC1(N)CC1`: “grade 3 Anorexia” 0% (paediatric recurrent refractory sarcoma; 10 mg).
The cytotoxicity efficacy of `CCN(CC)CCNC(=O)c1[nH]c2ccccc2c1Sc1ccc(Cl)cc1` is reported as 0% (Vero-E6; CellTiter-Glo ATP; concentration not given, 72 h, retest 8-point duplicates; baseline: DMSO 0%, hyamine -100%, more negative, more toxic).
With `CCCC(C(=O)c1ccc(O)c(O)c1)N1CCCC1` (stereo not drawn) the plasma concentration was 0.0151 ± 0.0019 µg/mL (LC-MS/MS; rat, trunk blood plasma; subcutaneous, 1 mg/kg MDPV, 40 min).
With `CCCCN(CCCNC(=O)c1cc(Nc2ccc(OC)c(OC)c2)nc2ccccc12)Cc1ccccc1` the cytotoxicity efficacy was 0% (Vero-E6; CellTiter-Glo ATP; concentration not given, 72 h, retest 8-point duplicates; baseline: DMSO 0%, hyamine -100%, more negative, more toxic).
For `CC(C)C[C@H](NC(=O)[C@H](C)NC(=O)[C@@H](NC(=O)[C@H](CCCNC(=N)N)NC(=O)[C@H](CC(C)C)NC(=O)[C@H](Cc1c[nH]c2ccccc12)NC(=O)[C@@H]1CCCN1C(=O)[C@@H](N)CCCCN)C(C)C)C(=O)N[C@@H](CS)C(=O)N1CCC[C@H]1C(=O)NCC(=O)O`, the viability was 88.4% and 97% and 94.9% (HEp-2; WST-1; 512 µM, 24 h).

For quick reference, copied from above:
With `N#Cc1c(Nc2ccc(F)cc2)n[nH]c1NS(=O)(=O)c1ccc2ccccc2c1` the CC50 was 8 µM (Huh-7).
`CNC(=O)c1c(C)oc2cc(Oc3ccnc4cc(OCCN5CCOCC5)ccc34)ccc12` gave a haemoglobin level of 19.5 g/dL (human; 6 mg twice daily, cycle 8).
For `CN/C(=N\[N+](=O)[O-])NCc1cnc(Cl)s1`, the recovery was 58% (soil; 0.12 nominal, 0 days, Folsomia candida soil test).
`CCCCCCCCc1ccc(CCC(N)(CO)CO)cc1` gave an inhibition of -21.5% (ABCG2 (Homo sapiens, UniProt Q9UNQ0); transport, inhibitor; 100 µM, 5 (unit not given), pH 7, added: CCK-8).
Under micronucleus induction, `COC(=O)C(C(C)C)N(Cc1ccc(-c2ccccc2-c2nn[nH]n2)cc1)N=O` (stereo not drawn) is recorded as “negative” (TK6).
